Assay results gathered from unrelated publications.
Lines come from different studies, so protocols differ. Numbers after ± are the reported error.

O=C1Nc2cc3[nH]nc(-c4ccncc4)c3cc2CN1Cc1ccccc1  patients with headache (CTCAE v4.03; advanced solid tumour patients; intravenous, 3.6 mg/kg, schedules 1/2): 33%
CO[C@H]1C[C@@H]2CC[C@@H](C)[C@@](O)(O2)C(=O)C(=O)N2CCCC[C@H]2C(=O)O[C@H]([C@H](C)C[C@@H]2CC[C@@H](OC(=O)NCCOCCOCCOCCOCCOCCOCCOCCOCCC(=O)N3CCc4cc(Cn5nc(-c6ccc7oc(N)nc7c6)c6c(N)ncnc65)ccc4C3)[C@H](OC)C2)C[C@@H](O)[C@H](C)/C=C(\C)[C@@H](O)[C@@H](OC)C(=O)[C@H](C)C[C@H](C)/C=C/C=C/C=C/1C  abdominal pain incidence (patients with advanced solid tumours; intravenous, 16 mg weekly, any grade): 25%
CC(C)[C@@H]1CC[C@@H](C)C[C@@H]1O  HDL cholesterol (acute oral toxicity OECD; Swiss albino mice, serum; oral, 300 mg/kg): 25.7 ± 8.97 mg/dL
COc1cccc2c1C(=O)c1c(O)c3c(c(O)c1C2=O)C[C@@](O)(C(=O)CO)C[C@@H]3O[C@H]1C[C@H](N)[C@H](O)[C@H](C)O1  serum troponin I (healthy BALB/cJ mice; 3 mg/kg weekly, 3 weeks, blood 1 week after treatment): increased
CC(=O)N(C)[C@H]1CCN(C(=O)c2cnc3c(c2)C[C@](C)(c2ccc(F)cc2)N3)C1  adverse event duration (measured: burning sensation in eye; human; oral, dose not given, added: midazolam): 186 days
O=C(c1ccc(F)c(F)c1Nc1ccc(I)cc1F)N1CC(O)([C@@H]2CCCCN2)C1  SAE leading dose modification (patients aged 6 to sample A years; oral, dose not given): 13%
COc1ncccc1-c1cnn2ccc(N3CCN(C(=O)OC(C)C)CC3)nc12  drug concentration (mouse, SNL model, plasma; oral, 60 mg/kg, 120 min): 13 µM
O=S(=O)(Nc1ccccc1)c1ccc(NC(=S)Nc2ccccc2)cc1  blood cell fraction (measured: LY%; female mouse, blood; oral, 20 mg/kg daily, 14 days): 59.9%
CC(C)[C@@H]1NC(=O)CNC(=O)[C@H](CC(N)=O)NC(=O)[C@H](CCCNC(=N)N)NC(=O)[C@H](Cc2ccc(O)cc2)NC(=O)[C@H](C(C)C)NC(=O)[C@@H](NC(=O)[C@@H](NC(=O)[C@H](CC(N)=O)NC(=O)[C@H](Cc2c[nH]c3ccccc23)NC(=O)[C@H](C)NC(=O)[C@H](Cc2ccccc2)NC(=O)CN)C(C)C)CSSC[C@@H](C(=O)N[C@@H](Cc2cnc[nH]2)C(=O)N[C@@H](CCCNC(=N)N)C(=O)N[C@@H](CCCNC(=N)N)C(=O)N[C@@H](C)C(=O)N[C@@H](CC(N)=O)C(N)=O)NC(=O)[C@H](C(C)C)NC(=O)[C@H](CCCNC(=N)N)NC1=O  phosphorus (ICR mice, serum; intraperitoneal, 5 mg/kg, day 5): 3.22 ± 0.23 mmol/L
CN[C@@H](C)C(=O)N[C@H]1CN(S(=O)(=O)c2cccc(S(=O)(=O)N3CC[C@H]4CC[C@@H](C(=O)NC(c5ccccc5)c5ccccc5)N4C(=O)[C@@H](NC(=O)[C@H](C)NC)C3)c2)CC[C@H]2CC[C@@H](C(=O)NC(c3ccccc3)c3ccccc3)N2C1=O  treatment-related AST elevation incidence (patients with advanced solid tumours; 7 mg, phase I monotherapy): 0%
O=C(Nc1ccc2c(c1)B(O)OC2)c1cccc(OCc2c(Cl)cccc2Cl)c1  acceptor concentration (PAMPA; pre-coated trilayer membrane; 200 µM, 5 h, pH 7.4, acceptor plate, PBS): 4.3 ± 0.6 µM
O=C(O)CCc1ccccc1  fraction unbound (human plasma; 5 µM, 6 h): 0.09
[O-][S+]1CCc2nc(N3CCC(c4ncc(Cl)cn4)CC3)nc(NC3(CO)CCC3)c21 (centres unmarked)  subjects with adverse events (phase I trial, measured: anal fistula; idiopathic pulmonary fibrosis patients; 18 mg twice daily): 10%
CC[C@H](C)[C@H](NC(=O)[C@H](CCCCN)NC(=O)[C@H](CCC(=O)O)NC(=O)[C@H](CCCCN)NC(=O)[C@H](CO)NC(=O)[C@H](CCCCN)NC(=O)[C@H](CCCNC(=N)N)NC(=O)[C@H](Cc1ccccc1)NC(=O)[C@H](Cc1ccccc1)NC(=O)[C@H](CC(=O)O)NC(=O)CNC(=O)[C@H](CC(C)C)NC(=O)[C@@H](N)CC(C)C)C(=O)NCC(=O)N[C@@H](CCCCN)C(=O)N[C@@H](CCC(=O)O)C(=O)N[C@@H](Cc1ccccc1)C(=O)N[C@@H](CCCCN)C(=O)N[C@@H](CCCNC(=N)N)C(=O)N[C@H](C(=O)N[C@H](C(=O)N[C@@H](CCC(N)=O)C(=O)N[C@@H](CCCNC(=N)N)C(=O)N[C@H](C(=O)N[C@@H](CCCCN)C(=O)N[C@@H](CC(=O)O)C(=O)N[C@@H](Cc1ccccc1)C(=O)N[C@@H](CC(C)C)C(=O)N[C@@H](CCCNC(=N)N)C(=O)N[C@@H](CC(N)=O)C(=O)N[C@@H](CC(C)C)C(=O)N[C@H](C(=O)N1CCC[C@H]1C(=O)N[C@@H](CCCNC(=N)N)C(=O)N[C@H](C(=O)N[C@@H](CCC(=O)O)C(=O)N[C@@H](CO)C(=O)O)[C@@H](C)O)C(C)C)[C@@H](C)CC)C(C)C)[C@@H](C)CC  remaining intact peptide (LC-MS; 50% pooled human serum; 40 µM, 540 min, pH 7.5, 37 °C; reference: 0 h): 0%

For quick reference, copied from above:
O=S(=O)(Nc1ccccc1)c1ccc(NC(=S)Nc2ccccc2)cc1  blood cell fraction (measured: LY%; female mouse, blood; oral, 20 mg/kg daily, 14 days): 59.9%
